Results collected from several papers.
Numbered parts are unrelated; each lists some results of a single study.
Sequence of UniProt P42681 (whole entry, looked up): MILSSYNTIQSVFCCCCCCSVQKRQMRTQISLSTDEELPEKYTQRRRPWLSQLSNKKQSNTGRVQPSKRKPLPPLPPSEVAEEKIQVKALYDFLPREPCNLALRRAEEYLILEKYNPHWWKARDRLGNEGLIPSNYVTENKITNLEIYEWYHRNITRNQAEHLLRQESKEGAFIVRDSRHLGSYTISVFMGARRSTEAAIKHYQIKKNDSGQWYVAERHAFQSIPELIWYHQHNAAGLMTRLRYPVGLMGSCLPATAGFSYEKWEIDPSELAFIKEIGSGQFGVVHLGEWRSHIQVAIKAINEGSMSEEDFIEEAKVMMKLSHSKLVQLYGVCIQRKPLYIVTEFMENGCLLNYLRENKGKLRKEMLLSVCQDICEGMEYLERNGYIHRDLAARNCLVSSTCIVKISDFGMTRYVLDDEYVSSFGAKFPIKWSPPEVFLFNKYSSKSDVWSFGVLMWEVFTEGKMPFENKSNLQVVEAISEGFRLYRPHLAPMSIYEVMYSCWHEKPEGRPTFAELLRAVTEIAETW
Sequence of UniProt Q14012 (whole entry, looked up): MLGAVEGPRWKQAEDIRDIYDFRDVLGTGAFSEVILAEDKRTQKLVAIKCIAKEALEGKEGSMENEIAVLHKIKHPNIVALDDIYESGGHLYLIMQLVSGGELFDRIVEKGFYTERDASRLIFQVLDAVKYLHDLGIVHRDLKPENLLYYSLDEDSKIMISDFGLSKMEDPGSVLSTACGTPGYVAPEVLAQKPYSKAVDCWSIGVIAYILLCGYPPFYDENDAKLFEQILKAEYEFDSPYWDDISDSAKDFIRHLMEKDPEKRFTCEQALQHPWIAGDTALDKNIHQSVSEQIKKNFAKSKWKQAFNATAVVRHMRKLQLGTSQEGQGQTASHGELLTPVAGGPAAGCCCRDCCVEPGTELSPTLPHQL
Sequence of UniProt Q9HBY8 (whole entry, looked up): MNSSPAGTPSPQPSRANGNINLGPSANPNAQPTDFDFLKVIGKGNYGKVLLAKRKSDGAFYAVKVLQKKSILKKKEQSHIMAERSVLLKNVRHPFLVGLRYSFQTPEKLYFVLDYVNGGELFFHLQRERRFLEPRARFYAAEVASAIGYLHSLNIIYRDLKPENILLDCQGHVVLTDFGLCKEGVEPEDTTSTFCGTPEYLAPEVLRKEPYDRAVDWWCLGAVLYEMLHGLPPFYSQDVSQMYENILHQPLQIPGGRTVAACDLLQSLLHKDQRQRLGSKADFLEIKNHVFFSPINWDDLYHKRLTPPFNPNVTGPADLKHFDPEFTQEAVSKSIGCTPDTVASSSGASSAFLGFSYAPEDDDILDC
Sequence of UniProt P51812 (whole entry, looked up): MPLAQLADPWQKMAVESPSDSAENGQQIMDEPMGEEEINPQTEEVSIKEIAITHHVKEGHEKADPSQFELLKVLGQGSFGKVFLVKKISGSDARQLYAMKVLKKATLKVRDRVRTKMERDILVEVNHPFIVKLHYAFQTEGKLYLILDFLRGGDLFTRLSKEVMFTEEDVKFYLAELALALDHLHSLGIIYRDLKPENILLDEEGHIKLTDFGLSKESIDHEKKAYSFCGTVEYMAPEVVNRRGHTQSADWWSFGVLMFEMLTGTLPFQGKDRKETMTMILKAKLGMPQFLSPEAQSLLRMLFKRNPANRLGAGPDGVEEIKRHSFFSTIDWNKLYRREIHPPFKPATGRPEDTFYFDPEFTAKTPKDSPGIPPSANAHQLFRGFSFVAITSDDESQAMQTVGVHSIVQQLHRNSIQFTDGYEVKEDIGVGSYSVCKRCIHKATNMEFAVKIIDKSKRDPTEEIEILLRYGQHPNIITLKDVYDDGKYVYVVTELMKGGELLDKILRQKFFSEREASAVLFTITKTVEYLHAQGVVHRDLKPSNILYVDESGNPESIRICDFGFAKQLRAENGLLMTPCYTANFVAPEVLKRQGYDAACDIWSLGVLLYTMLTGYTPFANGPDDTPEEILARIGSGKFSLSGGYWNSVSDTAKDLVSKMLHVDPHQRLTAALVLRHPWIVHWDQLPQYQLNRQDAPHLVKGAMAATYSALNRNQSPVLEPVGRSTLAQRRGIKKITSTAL
Sequence of UniProt Q15375 (whole entry, looked up): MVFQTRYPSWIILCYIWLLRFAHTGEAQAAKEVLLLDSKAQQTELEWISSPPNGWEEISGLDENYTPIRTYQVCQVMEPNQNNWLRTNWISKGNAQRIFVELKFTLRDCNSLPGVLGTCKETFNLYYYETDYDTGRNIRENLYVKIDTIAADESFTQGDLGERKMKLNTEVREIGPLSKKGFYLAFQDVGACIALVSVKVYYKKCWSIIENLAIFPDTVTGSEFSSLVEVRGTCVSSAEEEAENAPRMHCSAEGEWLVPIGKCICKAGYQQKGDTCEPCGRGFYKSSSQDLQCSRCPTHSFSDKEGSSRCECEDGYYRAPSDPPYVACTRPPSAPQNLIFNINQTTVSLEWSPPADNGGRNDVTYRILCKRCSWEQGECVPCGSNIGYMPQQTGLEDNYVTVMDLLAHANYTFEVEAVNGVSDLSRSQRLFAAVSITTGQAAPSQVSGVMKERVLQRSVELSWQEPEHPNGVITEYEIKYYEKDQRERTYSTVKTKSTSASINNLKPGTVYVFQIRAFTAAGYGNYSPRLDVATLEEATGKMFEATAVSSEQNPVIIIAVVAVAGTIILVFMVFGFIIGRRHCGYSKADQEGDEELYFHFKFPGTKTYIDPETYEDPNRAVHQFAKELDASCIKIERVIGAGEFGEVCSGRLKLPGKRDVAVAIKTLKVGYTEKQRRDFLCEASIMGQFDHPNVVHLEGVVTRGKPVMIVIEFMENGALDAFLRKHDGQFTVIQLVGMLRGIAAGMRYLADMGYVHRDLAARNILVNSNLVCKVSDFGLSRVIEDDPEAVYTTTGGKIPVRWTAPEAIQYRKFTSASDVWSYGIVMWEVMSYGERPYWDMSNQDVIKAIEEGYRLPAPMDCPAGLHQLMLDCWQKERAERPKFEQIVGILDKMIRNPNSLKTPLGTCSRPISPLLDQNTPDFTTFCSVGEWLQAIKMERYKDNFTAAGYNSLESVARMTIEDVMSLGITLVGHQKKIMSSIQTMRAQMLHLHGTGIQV
Sequence of UniProt Q9NYY3 (whole entry, looked up): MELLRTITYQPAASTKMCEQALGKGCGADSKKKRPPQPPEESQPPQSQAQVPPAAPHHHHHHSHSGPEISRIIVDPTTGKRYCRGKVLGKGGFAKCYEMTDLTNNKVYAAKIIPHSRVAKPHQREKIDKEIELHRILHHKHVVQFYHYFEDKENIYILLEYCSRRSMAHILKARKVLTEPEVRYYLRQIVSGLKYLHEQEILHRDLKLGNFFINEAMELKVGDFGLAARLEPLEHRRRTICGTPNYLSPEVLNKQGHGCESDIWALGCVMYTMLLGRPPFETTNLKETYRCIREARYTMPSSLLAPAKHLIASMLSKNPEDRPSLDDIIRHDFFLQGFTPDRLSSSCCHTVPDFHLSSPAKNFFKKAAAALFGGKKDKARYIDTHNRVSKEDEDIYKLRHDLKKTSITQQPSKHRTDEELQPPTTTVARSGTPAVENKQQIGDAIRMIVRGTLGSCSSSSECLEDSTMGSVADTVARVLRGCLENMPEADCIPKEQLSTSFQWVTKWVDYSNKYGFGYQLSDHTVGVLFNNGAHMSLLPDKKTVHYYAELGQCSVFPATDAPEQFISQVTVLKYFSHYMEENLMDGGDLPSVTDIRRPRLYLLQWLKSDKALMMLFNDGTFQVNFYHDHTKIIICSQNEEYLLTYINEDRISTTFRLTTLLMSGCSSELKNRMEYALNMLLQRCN
Sequence of UniProt Q05513 (whole entry, looked up): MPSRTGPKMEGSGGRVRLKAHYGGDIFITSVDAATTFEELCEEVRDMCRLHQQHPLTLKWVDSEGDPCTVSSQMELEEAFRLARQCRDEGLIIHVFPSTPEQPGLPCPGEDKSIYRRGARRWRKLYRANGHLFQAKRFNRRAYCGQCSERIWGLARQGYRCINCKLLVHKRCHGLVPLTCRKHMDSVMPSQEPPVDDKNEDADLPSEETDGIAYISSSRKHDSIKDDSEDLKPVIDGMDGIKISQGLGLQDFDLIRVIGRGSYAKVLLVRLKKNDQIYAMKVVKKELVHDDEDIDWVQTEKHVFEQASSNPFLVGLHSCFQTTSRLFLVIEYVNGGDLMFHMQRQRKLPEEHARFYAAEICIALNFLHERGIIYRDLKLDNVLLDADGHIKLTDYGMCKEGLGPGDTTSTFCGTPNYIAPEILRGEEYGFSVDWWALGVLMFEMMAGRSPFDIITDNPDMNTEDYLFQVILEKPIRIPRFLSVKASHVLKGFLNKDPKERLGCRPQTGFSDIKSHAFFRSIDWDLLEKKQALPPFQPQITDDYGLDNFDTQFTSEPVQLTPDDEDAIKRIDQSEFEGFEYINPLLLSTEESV

Set 1 — method: competition with immobilised ligand; tested at: 1 µM; quantity: remaining binding
SMILES: CN(c1ccnc(CNc2nc(Nc3ccc4c(c3)CC(=O)N4)ncc2C(F)(F)F)n1)S(C)(=O)=O
Ribosomal protein S6 kinase alpha-6, C-terminal kinase domain (RPS6KA6, Homo sapiens, UniProt Q9UK32); cell-free assay: 79%
FLT3 (Homo sapiens, UniProt P36888, D835V/ITD); cell-free assay: 0.7%
PRKD3 (Homo sapiens, UniProt O94806); cell-free assay: 100%
CHUK (Homo sapiens, UniProt O15111); cell-free assay: 57%
EPHA7 (Homo sapiens, UniProt Q15375); cell-free assay: 87%
PLK2 (Homo sapiens, UniProt Q9NYY3); binding: 0.5%
Ribosomal protein S6 kinase alpha-4, N-terminal kinase domain (RPS6KA4, Homo sapiens, UniProt O75676); cell-free assay: 81%
BMPR2 (Homo sapiens, UniProt Q13873); cell-free assay: 60%
LIM domain kinase 2 (LIMK2, Homo sapiens, UniProt P53671); cell-free assay: 94%
TXK (Homo sapiens, UniProt P42681); binding: 91%
EGFR (Homo sapiens, UniProt P00533, T790M); cell-free assay: 100%
ACVR1B (Homo sapiens, UniProt P36896); cell-free assay: 26%
SRC (Homo sapiens, UniProt P12931); cell-free assay: 60%
MAP2K1 (Homo sapiens, UniProt Q02750); cell-free assay: 85%
CDK13 (Homo sapiens, UniProt Q14004); cell-free assay: 82%
MAP3K15 (Homo sapiens, UniProt Q6ZN16); cell-free assay: 92%

Set 2 — method: protein-binding microarray; molecule type: double-stranded DNA, one strand shown; medium: in vitro; tested at: 250 nM; notes: 60-bp whole probe; added: salmon DNA 0.4 mg/ml; reference: random background probes; direction: higher = stronger binding; quantity: log fluorescence; all sequences stand within: GCCTAGCAC … GTCTTGATTCGCTTGACGCTGCTG
Target: Interferon regulatory factor 7, full length, phosphomimetic (IRF7, Homo sapiens, UniProt Q92985, residues 1-503, S101K/S471D/S472D/S475D/S476D/S477D/S483D/S484D/S487D)
Sequence of UniProt Q92985 (whole entry, unmodified, looked up): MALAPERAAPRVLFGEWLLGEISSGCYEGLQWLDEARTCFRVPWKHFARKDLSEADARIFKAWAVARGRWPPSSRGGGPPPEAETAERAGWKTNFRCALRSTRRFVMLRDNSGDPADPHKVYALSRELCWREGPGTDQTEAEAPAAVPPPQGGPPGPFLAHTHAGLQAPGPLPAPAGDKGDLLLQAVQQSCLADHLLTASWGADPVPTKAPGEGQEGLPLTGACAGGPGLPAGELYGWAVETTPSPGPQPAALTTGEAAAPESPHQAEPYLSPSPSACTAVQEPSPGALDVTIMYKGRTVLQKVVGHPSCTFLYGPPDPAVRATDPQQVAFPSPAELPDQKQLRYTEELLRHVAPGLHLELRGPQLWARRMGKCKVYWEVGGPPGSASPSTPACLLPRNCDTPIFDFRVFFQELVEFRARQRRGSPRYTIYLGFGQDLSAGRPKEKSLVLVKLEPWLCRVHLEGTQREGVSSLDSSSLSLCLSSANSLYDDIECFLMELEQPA
TCACATTTGGTTAGCGTACTGTGCTAG: 0.725 z-score
TCCACTTGTCTTTTCATTTTGTGCTAG: 1.06 z-score
GTGGTTCTGCTTCTTAGCGCGTGCTAG: 1.07 z-score
TTAGGTTTCCTTTCCCCTTAGTGCTAG: 4.68 z-score
TGCTTCCTAATTCTCTTTTCGTGCTAG: 2.66 z-score
TCATATATTATATATTTAACTGTGCTA: 0.623 z-score
TTAGGACTGGGTAGCGGTTAGTGCTAG: -0.506 z-score
CTAGGTATCGGGACTGGGTTAGTGCTA: 0.615 z-score

Set 3 — SMILES: Oc1ccc(Nc2nc(-c3ccc(Cl)cc3)cs2)cc1; read-out: enzyme activity; mode: inhibitor; tested at: 0.5 µM; reference: control; quantity: remaining activity
SRPK1 (Homo sapiens, UniProt Q96SB4): 103%
SGK2 (Homo sapiens, UniProt Q9HBY8): 108%
CAMKK1 (Homo sapiens, UniProt Q8N5S9): 124%
EPHA6 (Homo sapiens, UniProt Q9UF33): 101%
CAMK1 (Homo sapiens, UniProt Q14012): 111%
PRKCZ (Homo sapiens, UniProt Q05513): 105%
IGF1R (Homo sapiens, UniProt P08069): 102%
CLK1 (Homo sapiens, UniProt P49759): 104%
MAP3K20 (Homo sapiens, UniProt Q9NYL2): 92.7%
PAK1 (Homo sapiens, UniProt Q13153): 99.4%
JAK1 (Homo sapiens, UniProt P23458): 97.1%
PRKCQ (Homo sapiens, UniProt Q04759): 123%
EPHA2 (Homo sapiens, UniProt P29317): 105%
TYRO3 (Homo sapiens, UniProt Q06418): 102%
Cyclin-dependent kinase 2, with cyclin E (CDK2, Homo sapiens, UniProt P24941): 91.9%
FLT1 (Homo sapiens, UniProt P17948): 82.3%
SIK2 (Homo sapiens, UniProt Q9H0K1): 90.7%
CSNK1E (Homo sapiens, UniProt P49674): 103%
TEC (Homo sapiens, UniProt P42680): 120%
CLK2 (Homo sapiens, UniProt P49760): 102%
PAK6 (Homo sapiens, UniProt Q9NQU5): 100%
CSNK1D (Homo sapiens, UniProt P48730): 105%
RPS6KA3 (Homo sapiens, UniProt P51812): 107%

Set 4 — method: protein binding microarray; molecule type: double-stranded DNA, one strand shown; medium: in vitro; tested at: not given; reference: not given; direction: higher = stronger binding; quantity: E-score
Target: Histone acetyltransferase KAT6A, winged helix 2, GST fusion (KAT6A, Homo sapiens, UniProt Q92794, residues 85-181)
Notes: 8-mer, flanks averaged, mean of 2 arrays, mostly near background
Target sequence (chain): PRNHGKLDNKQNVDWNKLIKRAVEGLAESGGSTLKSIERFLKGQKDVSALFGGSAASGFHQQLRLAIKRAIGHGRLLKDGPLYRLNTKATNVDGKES
CGGTTCGC: 0.199
TAGAAACA: 0.131
ATCAAGCG: 0.0196
ATCAGGTA: 0.056
CAATTCCA: 0.0431
ATAGGTAC: -0.26
CTTCAATA: -0.153
CACGCGTA: -0.193

A few entries again (set 3):
JAK1 (Homo sapiens, UniProt P23458): 97.1%
SGK2 (Homo sapiens, UniProt Q9HBY8): 108%
CSNK1E (Homo sapiens, UniProt P49674): 103%
CLK1 (Homo sapiens, UniProt P49759): 104%
Cyclin-dependent kinase 2, with cyclin E (CDK2, Homo sapiens, UniProt P24941): 91.9%
TYRO3 (Homo sapiens, UniProt Q06418): 102%
